# Assay results of several laboratories.
# A part holds a random share of what one study measured. Changes are numbered by the printed parent chain.

# Set 1
# Target: CEP164, C-terminal peptide (human)
# Method: DHFR complementation, deep sequencing
# Medium: yeast
# Setting: single substitutions, model-inferred values
# Baseline: wild type
# Reading: higher = weaker binding
# Starting sequence: PDZK1, PDZ domain 2 (human); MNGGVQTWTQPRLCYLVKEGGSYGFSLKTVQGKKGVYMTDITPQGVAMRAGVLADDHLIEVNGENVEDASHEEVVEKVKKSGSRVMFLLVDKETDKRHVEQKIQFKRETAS; partner HNRVKVYRF
Variant,binding free energy change [kcal/mol]
N65P,0.105
T42H,0.388
E64A,0.125
K80L,0.546
K28V,-0.545

# Set 2
# Target: CCND1, cyclin fold, Cln2 fusion (human)
# Method: yeast growth competition, sequencing
# Medium: yeast
# Setting: strong parent motif
# Baseline: not given
# Reading: higher = stronger binding
# Starting sequence: E2F2 docking peptide (human); LPAKRKLDLEGIG
Variant,normalised enrichment score
K6A,0.391
E10A,0.312
G13A,1.57
D8A,-0.0613

# Set 3
# Target: Ras GTPase-activating protein-binding protein 1, full length (G3BP1, Homo sapiens, UniProt Q13283)
# UniProt Q13283, sequence (whole entry, looked up): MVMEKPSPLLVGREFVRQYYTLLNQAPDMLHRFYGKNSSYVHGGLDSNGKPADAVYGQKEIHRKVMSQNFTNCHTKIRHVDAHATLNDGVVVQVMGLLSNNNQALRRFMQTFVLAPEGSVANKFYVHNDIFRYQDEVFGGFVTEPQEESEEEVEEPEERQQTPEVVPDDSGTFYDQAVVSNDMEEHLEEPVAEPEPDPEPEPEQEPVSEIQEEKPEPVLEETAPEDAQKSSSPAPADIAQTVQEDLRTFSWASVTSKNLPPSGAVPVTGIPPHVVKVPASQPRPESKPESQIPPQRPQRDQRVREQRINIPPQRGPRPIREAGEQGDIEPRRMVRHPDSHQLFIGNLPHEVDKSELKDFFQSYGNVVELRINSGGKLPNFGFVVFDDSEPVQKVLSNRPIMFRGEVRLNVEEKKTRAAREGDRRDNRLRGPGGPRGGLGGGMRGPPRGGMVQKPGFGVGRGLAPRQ
# Method: RNA Bind-n-Seq
# Form: RNA
# Medium: in vitro
# Tested at: 200 nM
# Setting: whole 134-nt RNA, ends assumed
# Together with: 150 mM LiCl
# Baseline: input library
# Reading: higher = stronger binding
# Each molecule: 7-deaza-guanosine replaces G
Sequence,log2 enrichment
GGGAGUUCUACAGUCCGACGAUCGCAGGAAGUAAAAACAAAUGGAAAUGCUUCGGAUAGUGGCAGGGGUGGGGGUUGCUAAGGAAAGGGUGGGAUGGGAGUAGGUAAAGAGUUUGGAAUUCUCGGGUGUCAAGG,0.151
GGGAGUUCUACAGUCCGACGAUCGUCCUGUGCUACACAUCGUAUGUACCGAAUCGGGAAAAAAAGGGAAAGGGUUUUUGGGAAAGUAUUAUGUUACGCCGUUCGGAUCUGCACUGGAAUUCUCGGGUGUCAAGG,-1.17
GGGAGUUCUACAGUCCGACGAUCUCCUGUGCUACACAUCGUAUGUACCGAAUCGGGUUUUUUUGGGAAAAAGGGUUUUUGGGAAAGUAUUAUGUUACGCCGUUCGGAUCUGCAUGGAAUUCUCGGGUGUCAAGG,-2.14
GGGAGUUCUACAGUCCGACGAUCUCACUUUAGAGGAGGAUCUGAUGGAUAUGGCAGUGGACGUGGAUUUGGGGAUGGCUAUAAUGGGUAUGGAGGAGGACCUGGAGGUGGCAAUGGAAUUCUCGGGUGUCAAGG,0.0685

# Single results of other studies
Substance,target,assay,test system,setting,how to read,endpoint,result
"PhoQ, residues 284 288 289 292 302 303 ALASRC","PhoP, residues 12 14 15 18 19 FWNTL (Escherichia coli, UniProt P23836)","Sort-seq, refers to: YFP reporter",E. coli,"PhoQ-PhoP variant library, together with: 10 µM Mg2+","baseline: high Mg2+ state, higher = stronger signaling",fold induction,5.11
